Published values from different studies.
Compare with care: the assays were run in different laboratories. ± marks the error that the study gave.
RASA1 SH2 domains: Ras GTPase-activating protein 1, SH2 domains (RASA1, Homo sapiens, UniProt P20936)

| Compound | target | assay | test system | setting | Kd [µM] |
| --- | --- | --- | --- | --- | --- |
| C[C@H](NC(=O)[C@@H](NC(=O)[C@H](CO)NC(=O)[C@H](Cc1c[nH]cn1)NC(=O)[C@@H]1CCCN1C(=O)[C@H](CC(=O)O)NC(=O)[C@H](CCC(N)=O)NC(=O)[C@H](Cc1ccc(OP(=O)(O)O)cc1)NC(=O)[C@H](Cc1c[nH]cn1)NC(=O)[C@@H]1CCCN1C(=O)[C@H](CC(=O)O)NC(=O)[C@H](CCCNC(=N)N)NC(=O)[C@H](CO)NC(=O)[C@@H]1CCCN1C(=O)[C@H](C)NC(=O)[C@@H]1CCCN1C(=O)[C@H](CC(N)=O)NC(=O)c1ccc2c(c1)C(=O)OC21c2ccc(N(C)C)cc2Oc2cc(N(C)C)ccc21)[C@@H](C)O)C(=O)N[C@@H](CC(=O)O)C(=O)O | RASA1 SH2 domains | binding |  |  | 1.32 |
| CC(=O)c1cnc2ccc(-c3cc(Cl)c(O)c(Cl)c3)nc2c1N[C@H]1CC[C@H](CN(C)C)CC1 | Receptor-like protein kinase FERONIA (FER, Arabidopsis thaliana, UniProt Q9SCZ4) | binding, SPR steady-state |  | kinase domain | 0.4 |
| CN1C2CCCC1CC(NC(=O)c1nn(C)c3ccccc13)C2 (stereo not shown) | Soluble acetylcholine receptor (Aplysia californica, UniProt Q8WSF8, K160T/Q74R/S111E/V159L/Y212A) | homologous radioligand competition |  |  | 2.17 ± 0.163 |
| CC[C@H](C)[C@H](NC(=O)CNC(=O)[C@H](CC(=O)O)NC(=O)[C@H](Cc1ccc(OP(=O)(O)O)cc1)NC(=O)[C@@H]1CCCN1C(=O)[C@H](CCCCN)NC(=O)[C@H](CO)NC(=O)CNC(=O)[C@H](Cc1ccccc1)NC(=O)[C@@H](NC(=O)[C@H](CCSC)NC(=O)[C@H](CC(C)C)NC(=O)[C@H](CCC(=O)O)NC(=O)c1ccc2c(c1)C(=O)OC21c2ccc(N(C)C)cc2Oc2cc(N(C)C)ccc21)[C@@H](C)O)C(=O)N1CCC[C@H]1C(=O)N[C@@H](C)C(=O)N[C@@H](CO)C(=O)N[C@@H](CCC(=O)O)C(=O)N[C@@H](CC(=O)O)C(=O)O | RASA1 SH2 domains | binding |  |  | 1.41 |
| CC[C@H](C)[C@H](NC(=O)[C@H](CCCCN)NC(=O)[C@H](Cc1c[nH]cn1)NC(=O)[C@H](CCCCN)NC(=O)[C@H](CCC(=O)O)NC(=O)[C@H](CCCCN)NC(=O)[C@H](CC(C)C)NC(=O)c1ccc2c(c1)C(=O)OC21c2ccc(O)cc2Oc2cc(O)ccc21)C(=O)N[C@@H](CC(C)C)C(=O)N[C@@H](Cc1c[nH]cn1)C(=O)N[C@@H](CCCNC(=N)N)C(=O)N[C@@H](CC(C)C)C(=O)N[C@@H](CC(C)C)C(=O)N[C@@H](CCC(N)=O)C(=O)N[C@@H](CC(=O)O)C(=O)N[C@@H](CO)C(=O)N[C@@H](CO)C(=O)N[C@@H](CO)C(=O)N1CCC[C@H]1C(=O)N[C@H](C(=O)O)C(C)C | Peroxisome proliferator-activated receptor gamma (PPARG, Homo sapiens, UniProt P37231) | binding |  |  | 27.6 |
| CC(C)[C@H](N)C(=O)N1CCC[C@H]1C(=O)N[C@@H](CO)C(=O)N[C@@H](CCC(N)=O)C(=O)N[C@@H](CO)C(=O)N[C@@H](Cc1ccccc1)C(=O)N1CCC[C@H]1C(=O)N[C@@H](C)C(=O)N1CCC[C@H]1C(=O)N[C@@H](CCCNC(=N)N)C(=O)N[C@@H](CO)C(=O)N[C@@H](CCC(N)=O)C(=O)N[C@@H](CCC(N)=O)C(=O)N[C@@H](CCCNC(=N)N)C(=O)N[C@@H](Cc1c[nH]c2ccccc12)C(=O)O | Serine/threonine-protein phosphatase 4 regulatory subunit 3A, EVH1 domain (Homo sapiens, UniProt Q6IN85) | isothermal titration calorimetry | sodium phosphate buffer | pH 7.5 | 80.3 ± 4.3 |
| CC(=O)NCC(=O)NCC(=O)N[C@H](C(=O)N[C@@H](Cc1ccc(O)cc1)C(=O)N[C@@H](CO)C(=O)N[C@H]1CSSC[C@@H](C(=O)N[C@@H](CCCNC(=N)N)C(=O)N2CCC[C@H]2C(=O)N[C@@H](CCC(N)=O)C(=O)N[C@@H](CCCNC(=N)N)C(=O)NCC(=O)NCCC(=O)N[C@@H](CCCCNC(=O)CN(CC(=O)NCCCC[C@H](NC(=O)CCNC(=O)CNC(=O)[C@H](CCCNC(=N)N)NC(=O)[C@H](CCC(N)=O)NC(=O)[C@@H]2CCCN2C(=O)[C@H](CCCNC(=N)N)NC(=O)[C@@H]2CSSC[C@H](NC(=O)[C@H](CO)NC(=O)[C@H](Cc3ccc(O)cc3)NC(=O)[C@@H](NC(=O)CNC(=O)CNC(C)=O)[C@@H](C)O)C(=O)N[C@@H](Cc3c[nH]cn3)C(=O)N[C@@H](Cc3ccccc3)C(=O)NCC(=O)N[C@@H](C)C(=O)N[C@@H](CC(C)C)C(=O)N[C@@H]([C@@H](C)O)C(=O)N[C@@H](Cc3c[nH]c4ccccc34)C(=O)N[C@@H](C(C)C)C(=O)N2)C(N)=O)C(=O)CCN)C(N)=O)NC(=O)[C@H](C(C)C)NC(=O)[C@H](Cc2c[nH]c3ccccc23)NC(=O)[C@H]([C@@H](C)O)NC(=O)[C@H](CC(C)C)NC(=O)[C@H](C)NC(=O)CNC(=O)[C@H](Cc2ccccc2)NC(=O)[C@H](Cc2c[nH]cn2)NC1=O)[C@@H](C)O | Erythropoietin receptor, extracellular domain (Homo sapiens, UniProt P19235) | binding, SPR |  |  | 5.42e-05 |
| CC[C@H](C)[C@@H]1NC(=O)[C@H](Cc2ccccc2)NC(=O)[C@H](Cc2ccccc2)NC(=O)[C@@H]2CCCN2C(=O)[C@H](Cc2ccccc2)NC(=O)[C@H](C(C)C)NC(=O)[C@@H]2CCCN2C(=O)[C@H]([C@@H](C)CC)NC(=O)[C@H]([C@@H](C)CC)NC(=O)[C@H](CC(C)C)NC(=O)[C@@H](NC(=O)[C@H](CCSC)NC(C)=O)CSSC[C@@H](C(=O)NCC(=O)N[C@@H](CO)C(=O)NCC(=O)N[C@@H](CO)C(=O)N[C@@H](CC(=O)O)C(=O)N[C@@H](Cc2ccc(O)cc2)C(=O)N[C@@H](CCCCN)C(=O)N[C@@H](CC(=O)O)C(=O)N[C@@H](CC(=O)O)C(=O)N[C@@H](CC(=O)O)C(=O)N[C@@H](CC(=O)O)C(=O)N[C@@H](CCCCN)C(N)=O)NC1=O | Gastric inhibitory polypeptide receptor, extracellular domain (GIPR, Homo sapiens, UniProt P48546) | binding, biolayer interferometry |  | crude peptide, single concentration | 0.065 |
| CSCC[C@H](NC(=O)[C@H](CC(C)C)NC(=O)[C@H](C)NC(=O)[C@H](CCCNC(=N)N)NC(=O)[C@H](Cc1ccc(OP(=O)(O)O)cc1)NC(=O)[C@H](Cc1ccccc1)NC(=O)[C@H](CC(N)=O)NC(=O)[C@H](CO)NC(=O)[C@H](CC(=O)O)NC(=O)[C@@H](NC(=O)[C@@H]1CCCN1C(=O)[C@H](CO)NC(=O)[C@@H]1CCCN1C(=O)[C@H](CC(C)C)NC(=O)c1ccc2c(c1)C(=O)OC21c2ccc(N(C)C)cc2Oc2cc(N(C)C)ccc21)[C@@H](C)O)C(=O)N[C@@H](CC(=O)O)C(=O)N[C@@H](CCC(=O)O)C(=O)N[C@@H](CCC(=O)O)C(=O)N[C@@H](CC(=O)O)C(=O)O | Tyrosine-protein kinase Fes/Fps, SH2 domain (FES, Homo sapiens, UniProt P07332) | binding |  |  | 1.23 |
| NC(=O)N/N=C/c1ccc([N+](=O)[O-])o1 | Oxygen-insensitive NAD(P)H nitroreductase (nfsB, Escherichia coli K-12, UniProt P38489, K14E) | binding | Escherichia coli |  | 35 ± 2 |
| CC1=C(N(C)C)C(=O)c2ccccc2C1=O | Reaction center protein M chain, QA site (pufM, Cereibacter sphaeroides, UniProt P0C0Y9) | QA site binding | LDAO detergent solution | pH 7.8, 298 K, together with: 1 µM reaction centres | 0.06 |
| CC(C)C[C@H](NC(=O)[C@H](CC(=O)O)NC(=O)[C@H](CO)NC(=O)[C@H](CC(=O)O)NC(=O)[C@H](CO)NC(=O)CNC(=O)[C@H](C)NC(=O)[C@@H](N)Cc1ccc(O)cc1)C(=O)N[C@@H](CC(=O)O)C(=O)N[C@@H](COP(=O)(O)O)C(=O)N[C@@H](CC(=O)O)C(=O)N[C@@H](CC(=O)O)C(=O)N[C@@H](CCC(=O)O)C(=O)N[C@@H](Cc1ccccc1)C(=O)N[C@H](C(=O)N1CCC[C@H]1C(=O)N[C@@H](Cc1ccc(O)cc1)C(=O)O)C(C)C | PIH1 domain-containing protein 1, residues 1-180 (PIH1D1, Homo sapiens, UniProt Q9NWS0) | ITC |  | pH 8.0, 20 °C, together with: phosphopeptide | 3.1 ± 0.6 |
| CSCC[C@H](NC(=O)[C@H](Cc1ccc(OP(=O)(O)O)cc1)NC(=O)CNC(=O)CNC(=O)[C@H](CC(=O)O)NC(=O)[C@H](CO)NC(=O)[C@H](CCC(=O)O)NC(=O)CNC(=O)[C@@H](NC(=O)[C@H](CC(C)C)NC(=O)[C@H](CO)NC(=O)c1ccc2c(c1)C(=O)OC21c2ccc(N(C)C)cc2Oc2cc(N(C)C)ccc21)[C@@H](C)O)C(=O)N[C@@H](CC(=O)O)C(=O)N[C@@H](CCSC)C(=O)N[C@@H](CO)C(=O)N[C@@H](CCCCN)C(=O)N[C@@H](CC(=O)O)C(=O)N[C@@H](CCC(=O)O)C(=O)N[C@@H](CC(=O)O)C(=O)O | Signal transducer and activator of transcription 1-alpha/beta, SH2 domain (STAT1, Homo sapiens, UniProt P42224) | binding |  |  | 1.36 |
| CC(C)C[C@H](NC(=O)[C@H](CC(=O)O)NC(=O)[C@H](CC(=O)O)NC(=O)[C@H](CC(=O)O)NC(=O)[C@@H](NC(=O)[C@H](Cc1c[nH]c2ccccc12)NC(=O)[C@@H](N)CCC(=O)O)[C@@H](C)O)C(=O)N[C@@H](CO)C(=O)N[C@H](C(=O)N[C@@H](CC(=O)O)C(=O)N[C@@H](C)C(=O)O)C(C)C | Serine protease HTRA1, PDZ domain (Homo sapiens, UniProt Q92743) | isothermal titration calorimetry | isolated PDZ domain | pH 8.0 | 38.9 |
| O=C(O)CNC(=O)c1cccnc1 | Ubiquitin carboxyl-terminal hydrolase 13, ZnF-UBD domain (USP13, Homo sapiens, UniProt Q92995) |  |  |  | > 1000 |
| Nc1nc2c(ncn2[C@@H]2O[C@@H]3COP(=O)(O)O[C@H]4[C@@H](O)[C@H](n5cnc6c(N)ncnc65)O[C@@H]4COP(=O)(O)O[C@H]4[C@@H](O)[C@H](n5cnc6c(N)ncnc65)O[C@@H]4COP(=O)(O)O[C@H]3[C@H]2O)c(=O)[nH]1 | tad1 (Metaclostridioides mangenotii, UniProt P0DW61) |  |  |  | ~0.0201 |

Repeated from above:
| Compound | target | assay | test system | setting | Kd [µM] |
| --- | --- | --- | --- | --- | --- |
| NC(=O)N/N=C/c1ccc([N+](=O)[O-])o1 | Oxygen-insensitive NAD(P)H nitroreductase (nfsB, Escherichia coli K-12, UniProt P38489, K14E) | binding | Escherichia coli |  | 35 ± 2 |
| C[C@H](NC(=O)[C@@H](NC(=O)[C@H](CO)NC(=O)[C@H](Cc1c[nH]cn1)NC(=O)[C@@H]1CCCN1C(=O)[C@H](CC(=O)O)NC(=O)[C@H](CCC(N)=O)NC(=O)[C@H](Cc1ccc(OP(=O)(O)O)cc1)NC(=O)[C@H](Cc1c[nH]cn1)NC(=O)[C@@H]1CCCN1C(=O)[C@H](CC(=O)O)NC(=O)[C@H](CCCNC(=N)N)NC(=O)[C@H](CO)NC(=O)[C@@H]1CCCN1C(=O)[C@H](C)NC(=O)[C@@H]1CCCN1C(=O)[C@H](CC(N)=O)NC(=O)c1ccc2c(c1)C(=O)OC21c2ccc(N(C)C)cc2Oc2cc(N(C)C)ccc21)[C@@H](C)O)C(=O)N[C@@H](CC(=O)O)C(=O)O | RASA1 SH2 domains | binding |  |  | 1.32 |
